Results from different studies.
Each line is one published result; not all experiments were run side by side. Numbers after ± are the reported error.
Matrix: plasma

SMILES | test | test system | setting | how to read | endpoint | result
CCc1nc2c(C)cc(N3CCN(CC(=O)N4CC(O)C4)CC3)cn2c1N(C)c1nc(-c2ccc(F)cc2)c(C#N)s1 | – | healthy volunteers, fed | oral, 600 mg single dose, day 1, tablet | – | AUC(0-inf) | 45100 ng·h/mL
CC(=O)N[C@H]1CC[C@H](NC(=O)CN2CCN(c3nncc(-c4ccc(C)cc4)n3)CC2)CC1 | – | women | oral, 100 mg single dose, study | – | AUC(0-inf) | 6370 ng·h/mL
CCCCCCCCCCCCCCCC(=O)N[C@@H](CCC(=O)NCCCC[C@@H]1NC(=O)[C@H]([C@@H](C)CC)NC(=O)[C@@H](NC(=O)[C@@H]2CCCN2C(=O)[C@H](Cc2ccccc2)NC(=O)[C@H](Cc2c[nH]cn2)NC(=O)[C@@H](NC(=O)[C@H](CC(=O)O)NC(=O)CC(C)C)[C@@H](C)O)CSSC[C@@H](C(=O)N[C@@H](CCCCN)C(N)=O)NC(=O)CNC(=O)[C@H](CCCCN)NC(=O)[C@H](CO)NC(=O)[C@H](CCCNC(=N)N)NC(=O)[C@@H]2CCCN2C(=O)[C@H](CCC(=O)O)NC(=O)[C@H](Cc2ccccc2)NC1=O)C(=O)O | – | healthy volunteers | subcutaneous, 45 mg | reference: parent plus metabolites | AUC(0-inf) share of total | 55.2 ± 4.55%
CS(=O)(=O)c1ccc([C@@H](O)[C@@H](CF)NC(=O)C(Cl)Cl)cc1 | – | chicken (Arbor Acres) | oral, 20 mg/kg, together with: saline pretreatment | – | AUC(0-inf) | 25100 ± 2720 ng·h/mL
C[C@@H](N)C1CCN(S(=O)(=O)c2cccc3cnccc23)CC1 | – | healthy volunteers, fasted | oral, 250 mg | – | AUC(0-inf) | 78.2 ng·h/mL
C[C@H]1CN(C(=O)CC#N)[C@]12CCN(c1ncnc3[nH]ccc13)C2 | – | healthy Japanese males | oral, 25 mg single dose | – | AUC(0-inf) | 957 ng·h/mL
FC(F)(F)c1ccc(CNc2ccc(Cc3c[nH]c4ncc(Cl)cc34)cn2)cn1 | – | healthy volunteers | oral, 600 mg, together with: rifampin | reference: with rifampin over alone | AUC(0-inf) ratio | 0.37
COc1cc(C(=O)NC2CCN(C)CC2)c(F)cc1Nc1ncc(C(F)(F)F)c(Oc2cccc3c2C(=O)N(C)C3)n1 | – | cancer patients | oral, 50 mg single dose, cycle 1 day 1, geometric mean | – | AUC(0-inf) | 5.32 µM·h
COc1ccc([C@@H](O)c2cc(-c3ncnc4cc(N5CCOCC5)ccc34)c(F)cc2Cl)nn1 | mixed model | healthy volunteers | oral, 100 mg, fasted tablet reference arm | – | AUC(0-inf) geometric LS mean | 1150 ng·h/mL

Repeated from above:
SMILES | test | test system | setting | how to read | endpoint | result
CCCCCCCCCCCCCCCC(=O)N[C@@H](CCC(=O)NCCCC[C@@H]1NC(=O)[C@H]([C@@H](C)CC)NC(=O)[C@@H](NC(=O)[C@@H]2CCCN2C(=O)[C@H](Cc2ccccc2)NC(=O)[C@H](Cc2c[nH]cn2)NC(=O)[C@@H](NC(=O)[C@H](CC(=O)O)NC(=O)CC(C)C)[C@@H](C)O)CSSC[C@@H](C(=O)N[C@@H](CCCCN)C(N)=O)NC(=O)CNC(=O)[C@H](CCCCN)NC(=O)[C@H](CO)NC(=O)[C@H](CCCNC(=N)N)NC(=O)[C@@H]2CCCN2C(=O)[C@H](CCC(=O)O)NC(=O)[C@H](Cc2ccccc2)NC1=O)C(=O)O | – | healthy volunteers | subcutaneous, 45 mg | reference: parent plus metabolites | AUC(0-inf) share of total | 55.2 ± 4.55%
